{"data": "Measured values collected from several papers", "note": "Parts stem from different laboratories: compare values within a part only. Positions count from the first letter of the parent shown.", "chain of UniProt Q9UL54 (whole entry, looked up)": "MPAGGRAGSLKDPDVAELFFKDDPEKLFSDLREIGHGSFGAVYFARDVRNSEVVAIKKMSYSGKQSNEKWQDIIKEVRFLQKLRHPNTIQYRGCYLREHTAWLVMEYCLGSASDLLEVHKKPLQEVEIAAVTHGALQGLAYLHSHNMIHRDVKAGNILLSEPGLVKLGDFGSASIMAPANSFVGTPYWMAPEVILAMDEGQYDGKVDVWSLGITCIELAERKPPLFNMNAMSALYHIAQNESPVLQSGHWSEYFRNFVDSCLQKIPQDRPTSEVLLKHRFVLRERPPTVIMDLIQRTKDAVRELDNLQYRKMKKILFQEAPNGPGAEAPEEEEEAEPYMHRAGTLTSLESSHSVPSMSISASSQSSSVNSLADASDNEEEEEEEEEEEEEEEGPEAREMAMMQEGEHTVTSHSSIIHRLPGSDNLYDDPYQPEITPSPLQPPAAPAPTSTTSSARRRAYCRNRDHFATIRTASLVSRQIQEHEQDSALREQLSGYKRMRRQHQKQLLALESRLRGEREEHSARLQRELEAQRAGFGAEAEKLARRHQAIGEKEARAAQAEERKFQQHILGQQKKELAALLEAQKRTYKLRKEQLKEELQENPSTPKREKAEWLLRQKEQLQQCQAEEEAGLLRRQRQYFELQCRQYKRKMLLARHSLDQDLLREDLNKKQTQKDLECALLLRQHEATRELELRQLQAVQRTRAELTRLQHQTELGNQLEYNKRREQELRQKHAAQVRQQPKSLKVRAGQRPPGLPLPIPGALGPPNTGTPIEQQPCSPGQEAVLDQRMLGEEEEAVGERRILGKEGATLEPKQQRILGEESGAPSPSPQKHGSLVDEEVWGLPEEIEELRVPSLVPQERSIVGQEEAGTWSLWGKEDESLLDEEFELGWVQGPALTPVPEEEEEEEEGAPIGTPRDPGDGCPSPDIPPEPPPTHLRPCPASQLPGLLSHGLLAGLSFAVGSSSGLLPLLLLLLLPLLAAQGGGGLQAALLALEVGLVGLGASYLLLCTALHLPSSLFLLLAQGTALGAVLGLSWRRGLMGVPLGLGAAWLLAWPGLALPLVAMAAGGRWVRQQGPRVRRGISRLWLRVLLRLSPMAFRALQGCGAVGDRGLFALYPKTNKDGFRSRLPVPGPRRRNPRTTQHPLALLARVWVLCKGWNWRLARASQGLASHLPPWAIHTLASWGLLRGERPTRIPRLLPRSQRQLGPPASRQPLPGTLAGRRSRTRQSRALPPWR", "chain of UniProt P0C1S8 (whole entry, looked up)": "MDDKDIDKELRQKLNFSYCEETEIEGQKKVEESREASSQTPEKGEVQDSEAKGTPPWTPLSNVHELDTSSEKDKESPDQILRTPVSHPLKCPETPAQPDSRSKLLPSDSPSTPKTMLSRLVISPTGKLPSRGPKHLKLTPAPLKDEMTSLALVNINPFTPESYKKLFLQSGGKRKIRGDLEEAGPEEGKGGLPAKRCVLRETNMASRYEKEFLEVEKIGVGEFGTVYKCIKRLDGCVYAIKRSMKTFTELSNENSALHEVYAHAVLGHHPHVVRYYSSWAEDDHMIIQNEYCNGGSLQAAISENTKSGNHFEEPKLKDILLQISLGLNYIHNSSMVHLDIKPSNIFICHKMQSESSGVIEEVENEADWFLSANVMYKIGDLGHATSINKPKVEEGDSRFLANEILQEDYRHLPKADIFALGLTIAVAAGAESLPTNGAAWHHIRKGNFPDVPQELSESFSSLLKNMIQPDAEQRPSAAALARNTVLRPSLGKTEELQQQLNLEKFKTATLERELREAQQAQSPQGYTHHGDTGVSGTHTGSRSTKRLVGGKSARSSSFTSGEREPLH", "chain of UniProt O75676 (whole entry, looked up)": "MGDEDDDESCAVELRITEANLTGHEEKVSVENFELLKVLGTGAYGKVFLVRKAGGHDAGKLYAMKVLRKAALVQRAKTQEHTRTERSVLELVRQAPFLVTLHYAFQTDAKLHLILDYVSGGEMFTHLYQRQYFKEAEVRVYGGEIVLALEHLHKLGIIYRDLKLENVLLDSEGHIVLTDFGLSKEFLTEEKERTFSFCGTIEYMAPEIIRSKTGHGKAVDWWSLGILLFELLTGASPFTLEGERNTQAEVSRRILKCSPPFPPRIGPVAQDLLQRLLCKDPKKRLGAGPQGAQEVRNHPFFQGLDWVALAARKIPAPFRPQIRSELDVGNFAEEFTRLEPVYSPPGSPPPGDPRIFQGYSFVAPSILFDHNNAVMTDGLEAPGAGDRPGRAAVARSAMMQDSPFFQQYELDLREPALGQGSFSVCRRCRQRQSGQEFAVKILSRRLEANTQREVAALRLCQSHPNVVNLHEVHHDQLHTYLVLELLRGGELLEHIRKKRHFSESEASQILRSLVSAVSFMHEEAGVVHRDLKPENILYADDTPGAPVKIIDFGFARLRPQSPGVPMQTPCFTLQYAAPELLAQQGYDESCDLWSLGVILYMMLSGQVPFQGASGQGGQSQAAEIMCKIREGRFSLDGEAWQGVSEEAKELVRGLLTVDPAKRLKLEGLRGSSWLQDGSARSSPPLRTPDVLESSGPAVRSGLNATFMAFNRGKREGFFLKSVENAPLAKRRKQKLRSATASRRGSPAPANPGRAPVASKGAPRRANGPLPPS", "chain of UniProt P21127 (whole entry, looked up)": "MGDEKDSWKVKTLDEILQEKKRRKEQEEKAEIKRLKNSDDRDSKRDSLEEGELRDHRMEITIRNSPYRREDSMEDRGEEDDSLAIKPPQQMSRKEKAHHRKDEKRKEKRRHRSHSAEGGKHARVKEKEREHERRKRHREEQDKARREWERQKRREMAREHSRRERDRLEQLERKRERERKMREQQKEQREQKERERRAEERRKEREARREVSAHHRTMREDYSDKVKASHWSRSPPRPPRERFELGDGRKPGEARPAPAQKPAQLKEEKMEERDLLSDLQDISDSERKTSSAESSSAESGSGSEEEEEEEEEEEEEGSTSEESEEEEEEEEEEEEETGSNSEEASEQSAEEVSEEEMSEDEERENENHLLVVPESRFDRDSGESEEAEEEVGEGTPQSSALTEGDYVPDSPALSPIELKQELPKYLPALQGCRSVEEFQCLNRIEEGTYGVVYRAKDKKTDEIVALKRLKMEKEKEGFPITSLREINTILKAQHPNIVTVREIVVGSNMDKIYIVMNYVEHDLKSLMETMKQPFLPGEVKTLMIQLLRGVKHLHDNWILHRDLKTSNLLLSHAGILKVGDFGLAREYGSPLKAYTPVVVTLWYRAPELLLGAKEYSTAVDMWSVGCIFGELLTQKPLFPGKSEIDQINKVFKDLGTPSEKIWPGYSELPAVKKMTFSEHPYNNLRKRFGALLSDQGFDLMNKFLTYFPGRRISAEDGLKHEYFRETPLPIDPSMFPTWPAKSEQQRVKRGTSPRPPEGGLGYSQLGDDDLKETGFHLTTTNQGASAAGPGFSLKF"}
{"data": "Block 1", "target": "ATF5, bZIP domain (human)", "technique": "DHFR protein complementation", "matrix": "yeast", "setting": "single substitutions, most at no-binding floor", "relative to": "wild-type JUN-FOS pair", "direction": "higher = stronger binding", "starting sequence": "JUN, bZIP domain (human); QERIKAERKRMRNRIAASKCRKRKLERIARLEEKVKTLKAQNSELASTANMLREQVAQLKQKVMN; partner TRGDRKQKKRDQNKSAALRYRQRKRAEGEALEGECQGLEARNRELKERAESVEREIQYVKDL"}
{"Variant": "A57L", "binding fitness [natural log]": -1.57}
{"Variant": "L31C", "binding fitness [natural log]": -1.52}
{"Variant": "R30H", "binding fitness [natural log]": -1.56}
{"Variant": "E32R", "binding fitness [natural log]": -1.28}
{"Variant": "L52S", "binding fitness [natural log]": -1.55}
{"Variant": "L45S", "binding fitness [natural log]": -1.44}
{"Variant": "T37V", "binding fitness [natural log]": -1.41}
{"Variant": "M51Q", "binding fitness [natural log]": -1.46}
{"data": "Block 2", "SMILES": "CS(=O)(=O)N1CCCC(NC(=O)[C@H](CCC2CCCCC2)NC(=O)c2ccc(CNc3ncnc4c3nnn4-c3ccccc3)cc2)C1 (stereo partly drawn)", "observed": "cell-free assay", "technique": "competition with immobilised ligand", "tested at": "0.1 µM"}
{"target": "Serine/threonine-protein kinase TAO2 (TAOK2, Homo sapiens, UniProt Q9UL54)", "remaining binding [%]": 93}
{"target": "Wee1-like protein kinase 2 (WEE2, Homo sapiens, UniProt P0C1S8)", "remaining binding [%]": 100}
{"target": "Dual specificity mitogen-activated protein kinase kinase 1 (MAP2K1, Homo sapiens, UniProt Q02750)", "remaining binding [%]": 100}
{"target": "Receptor-type tyrosine-protein kinase FLT3 (FLT3, Homo sapiens, UniProt P36888, R834Q)", "remaining binding [%]": 94}
{"target": "Ribosomal protein S6 kinase alpha-4, N-terminal kinase domain (RPS6KA4, Homo sapiens, UniProt O75676)", "remaining binding [%]": 86}
{"target": "Cyclin-dependent kinase 11B (CDK11B, Homo sapiens, UniProt P21127)", "remaining binding [%]": 100}
{"data": "Block 3", "target": "Interferon regulatory factor 7, full length, phosphomimetic (IRF7, Homo sapiens, UniProt Q92985, residues 1-503, S471D/S472D/S475D/S476D/S477D/S483D/S484D/S487D)", "technique": "protein-binding microarray", "molecule type": "double-stranded DNA, one strand shown", "matrix": "in vitro", "tested at": "2200 nM top", "setting": "60-bp whole probe", "added": "salmon DNA 0.4 mg/ml", "relative to": "random background probes", "direction": "higher = stronger binding", "shared flanks, not repeated": "GCCTAGCAC … GTGCTAGGTCTTGATTCGCTTGACGCTGCTG", "chain of UniProt Q92985 (whole entry, unmodified, looked up)": "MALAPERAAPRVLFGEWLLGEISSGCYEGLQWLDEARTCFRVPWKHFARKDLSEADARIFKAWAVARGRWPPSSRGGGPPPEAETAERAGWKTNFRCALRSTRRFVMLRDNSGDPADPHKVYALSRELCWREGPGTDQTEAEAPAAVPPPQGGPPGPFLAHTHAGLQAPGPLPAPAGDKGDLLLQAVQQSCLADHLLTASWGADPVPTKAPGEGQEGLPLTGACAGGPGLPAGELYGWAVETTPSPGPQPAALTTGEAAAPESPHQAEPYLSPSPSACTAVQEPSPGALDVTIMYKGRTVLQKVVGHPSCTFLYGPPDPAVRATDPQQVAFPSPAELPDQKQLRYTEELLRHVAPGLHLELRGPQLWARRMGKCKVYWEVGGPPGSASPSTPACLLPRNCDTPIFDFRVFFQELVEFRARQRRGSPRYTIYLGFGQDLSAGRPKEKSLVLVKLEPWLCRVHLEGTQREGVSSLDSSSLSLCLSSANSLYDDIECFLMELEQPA"}
{"Sequence": "GACGATCTCAATCTCGAGAC", "fitted relative affinity": "0.219 z-score"}
{"Sequence": "TTTGGACTGCTTTTCCTTTA", "fitted relative affinity": "1.86 z-score"}
{"Sequence": "TTAGGACTGCTACTGCTTTG", "fitted relative affinity": "-0.0764 z-score"}
{"Sequence": "TTAGATATCAGCATCGATTA", "fitted relative affinity": "-0.298 z-score"}
{"Sequence": "GACGATTTCAGTTCCGAGAG", "fitted relative affinity": "1.5 z-score"}
{"Sequence": "GACGATATCAGTATCGTGAC", "fitted relative affinity": "0.389 z-score"}
{"Sequence": "TACGATTTCAGACTGGAGAC", "fitted relative affinity": "0.579 z-score"}
{"Sequence": "TTAGGTATCCTTCTCCTTTG", "fitted relative affinity": "1.23 z-score"}
{"data": "Block 4", "target": "Dual specificity mitogen-activated protein kinase kinase 1 (MAP2K1, Homo sapiens, UniProt Q02750)", "observed": "enzyme activity", "mode": "inhibitor", "tested at": "0.5 µM", "relative to": "control"}
{"SMILES": "O=C(O)c1ccc2c3c1cccc3c(=O)n1c3ccccc3nc21", "remaining activity [%]": 93.7}
{"SMILES": "Cc1cccc(-c2[nH]c(C(C)(C)C)nc2-c2ccc3c(c2)OCO3)n1", "remaining activity [%]": 93.3}
{"SMILES": "COc1ccc(OC)c2c(=S)c3ccccc3[nH]c12", "remaining activity [%]": 91.7}
{"SMILES": "CNC(=O)c1cc(Oc2ccc(NC(=O)Nc3ccc(Cl)c(C(F)(F)F)c3)cc2)ccn1", "remaining activity [%]": 102}
{"SMILES": "COc1ccc(CNC(=O)Nc2ncc([N+](=O)[O-])s2)cc1", "remaining activity [%]": 101}
{"SMILES": "O=c1c2ccccc2[nH]c(=S)n1CCN1CCC(=C(c2ccc(F)cc2)c2ccc(F)cc2)CC1", "remaining activity [%]": 97.5}
{"SMILES": "CO[C@H]1C[C@@H]2CC[C@@H](C)[C@@](O)(O2)C(=O)C(=O)N2CCCC[C@H]2C(=O)O[C@H]([C@H](C)C[C@@H]2CC[C@@H](O)[C@H](OC)C2)CC(=O)[C@H](C)/C=C(\\C)[C@@H](O)[C@@H](OC)C(=O)[C@H](C)C[C@H](C)/C=C/C=C/C=C/1C", "remaining activity [%]": 92.1}
{"SMILES": "C#Cc1cccc(Nc2ncnc3cc(OCCOC)c(OCCOC)cc23)c1", "remaining activity [%]": 105}
{"SMILES": "Nc1ccc2ncnc(NCCc3ccc(Oc4ccccc4)cc3)c2c1", "remaining activity [%]": 107}
{"SMILES": "N#CC(C#N)=C(N)/C(C#N)=C/c1ccc(O)cc1", "remaining activity [%]": 93.7}
{"SMILES": "Cn1sc(=O)n(Cc2ccccc2)c1=O", "remaining activity [%]": 83.8}
{"SMILES": "O=C1NC(=O)C(c2cn(CCCO)c3ncccc23)=C1c1cnccn1", "remaining activity [%]": 106}
{"SMILES": "COc1cc2nccc(Oc3ccc(NC(=S)NC(=O)c4ccccc4C)cc3)c2cc1OC", "remaining activity [%]": 88.3}
{"SMILES": "O=C1NC(=O)C(c2cn(CCCn3ccnc3)c3ccccc23)=C1Nc1ccccc1", "remaining activity [%]": 90.6}
{"note": "Some of these lines once more (block 4):"}
{"SMILES": "COc1ccc(CNC(=O)Nc2ncc([N+](=O)[O-])s2)cc1", "remaining activity [%]": 101}
{"SMILES": "O=c1c2ccccc2[nH]c(=S)n1CCN1CCC(=C(c2ccc(F)cc2)c2ccc(F)cc2)CC1", "remaining activity [%]": 97.5}
{"SMILES": "CO[C@H]1C[C@@H]2CC[C@@H](C)[C@@](O)(O2)C(=O)C(=O)N2CCCC[C@H]2C(=O)O[C@H]([C@H](C)C[C@@H]2CC[C@@H](O)[C@H](OC)C2)CC(=O)[C@H](C)/C=C(\\C)[C@@H](O)[C@@H](OC)C(=O)[C@H](C)C[C@H](C)/C=C/C=C/C=C/1C", "remaining activity [%]": 92.1}
{"SMILES": "C#Cc1cccc(Nc2ncnc3cc(OCCOC)c(OCCOC)cc23)c1", "remaining activity [%]": 105}
{"SMILES": "Nc1ccc2ncnc(NCCc3ccc(Oc4ccccc4)cc3)c2c1", "remaining activity [%]": 107}
